Results gathered from unrelated publications.
Every numbered part comes from another study and shows a few of its results, in no order. Positions count from the first letter of the parent shown.

Set 1 — technique: protein binding microarray; form: double-stranded DNA, one strand shown; sample: in vitro; concentration: not given; relative to: not given; reading: higher = stronger binding; measurement: E-score
Target: Histone acetyltransferase KAT6A, both winged helices, GST fusion (KAT6A, Homo sapiens, UniProt Q92794, residues 1-181)
Notes: 8-mer, flanks averaged, mean of 2 arrays, mostly near background
Target sequence (chain): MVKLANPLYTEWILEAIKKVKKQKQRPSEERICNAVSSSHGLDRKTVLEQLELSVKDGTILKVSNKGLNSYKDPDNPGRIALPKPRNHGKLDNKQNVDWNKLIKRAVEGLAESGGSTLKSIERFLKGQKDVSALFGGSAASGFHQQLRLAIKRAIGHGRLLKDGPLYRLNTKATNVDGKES
AGCCTATC: -0.0646
GAAGAGTC: -0.0866
CCCAAATC: -0.125
CTTATTAC: -0.0837
TCATTACA: 0.044
CAGACTGG: -0.211
GAGGTCCA: -0.1
CCCAACTA: -0.273

Set 2 — target: CEP164, C-terminal peptide (human); technique: DHFR complementation, deep sequencing; sample: yeast; relative to: wild type; reading: higher = weaker binding; measurement: binding free energy change
Notes: single substitutions, model-inferred values
Starting sequence: PDZK1, PDZ domain 2 (human); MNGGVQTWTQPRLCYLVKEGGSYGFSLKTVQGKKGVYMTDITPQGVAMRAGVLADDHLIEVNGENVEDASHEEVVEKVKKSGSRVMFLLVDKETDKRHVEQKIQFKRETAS; partner HNRVKVYRF
V66S: 0.706 kcal/mol
I59S: 1.25 kcal/mol
K96I: 0.02 kcal/mol
T42W: 0.532 kcal/mol
T42R: 0.195 kcal/mol
K102G: -0.127 kcal/mol
C14D: 1.41 kcal/mol
I59E: 1.72 kcal/mol

Set 3 — read-out: enzyme activity; mode: inhibitor; concentration: 0.5 µM; relative to: control; measurement: remaining activity
Target: Serine/threonine-protein kinase pim-1 (PIM1, Homo sapiens, UniProt P11309)
Chain of UniProt P11309 (whole entry, looked up): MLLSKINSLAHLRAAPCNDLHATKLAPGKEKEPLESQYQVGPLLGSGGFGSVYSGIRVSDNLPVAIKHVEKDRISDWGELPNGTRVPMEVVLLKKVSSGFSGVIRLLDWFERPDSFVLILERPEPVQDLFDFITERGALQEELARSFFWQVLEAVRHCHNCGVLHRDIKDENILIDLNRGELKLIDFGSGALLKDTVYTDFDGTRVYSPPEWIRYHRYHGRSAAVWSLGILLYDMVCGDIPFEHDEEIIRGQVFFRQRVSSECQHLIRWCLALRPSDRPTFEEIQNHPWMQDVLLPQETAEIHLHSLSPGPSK
CN(C)c1ccc(C=C2C(=O)Nc3ccccc32)cc1: 101%
CNC(=O)c1cc(Oc2ccc(NC(=O)Nc3ccc(Cl)c(C(F)(F)F)c3)cc2)ccn1: 97%
Nc1[nH]nc2nc3ccccc3nc12: 94%
Cc1ccc(NC(=O)c2ccc(CN3CCN(C)CC3)cc2)cc1Nc1nc(-c2cccnc2)cs1: 86.4%
Cc1nc(-c2ccccc2)c(-c2ccncc2)o1: 105%
CC(C)[C@H](CO)Nc1nc(Nc2cc(N)cc(Cl)c2)c2ncn(C(C)C)c2n1: 98%
N#CC(C#N)=C(N)/C(C#N)=C/c1ccc(O)cc1: 103%
O=S(=O)(c1cccc2cnccc12)N1CCCNCC1: 77%
Nc1ccc2ncnc(NCCc3ccc(Oc4ccccc4)cc3)c2c1: 102%
Cc1ccc(Nc2nccc(N(C)c3ccc4c(C)n(C)nc4c3)n2)cc1S(N)(=O)=O: 100%
Oc1ccc(-c2nc(-c3ccncc3)c(-c3ccc(F)cc3)[nH]2)cc1: 106%
COc1ccc(OC)c2c(=S)c3ccccc3[nH]c12: 93%
COc1cc2nccc(Oc3ccc(NC(=S)NC(=O)c4ccccc4C)cc3)c2cc1OC: 97.6%
Cn1sc(=O)n(Cc2ccccc2)c1=O: 93%
NCCNc1ncc(C(N)=O)c(Nc2cccc(C(F)(F)F)c2)n1: 76.1%

Single results of other studies
COc1ccc(N(C)C(=S)Nc2ccc3nc[nH]c(=O)c3c2)cc1  inhibition (AlphaScreen signal, AlphaScreen counter screen; His6 peptide without bromodomain; 50 µM, assay interference check): 10.3%
C/C(O)=C(\C#N)C(=O)Nc1ccc(C(F)(F)F)cc1  viability (A-375; 100 µM, 36 h): 59.8%
Nc1nc(NCc2ccccc2)c2nc[nH]c2n1  inhibition (AlphaScreen signal, AlphaScreen counter screen; His6 peptide without bromodomain; 50 µM, assay interference check): 69.8%

Some of these lines once more (set 2):
K96I: 0.02 kcal/mol
T42W: 0.532 kcal/mol
